Published values collected from several papers.
Numbered parts are unrelated; each lists some results of a single study. Positions count from the first letter of the parent shown.

Block 1
Target: RING finger protein unkempt homolog, zinc fingers 1-6, SBP tag (UNK, Homo sapiens, UniProt Q9C0B0, residues 30-357)
UniProt Q9C0B0, sequence (30-357, looked up): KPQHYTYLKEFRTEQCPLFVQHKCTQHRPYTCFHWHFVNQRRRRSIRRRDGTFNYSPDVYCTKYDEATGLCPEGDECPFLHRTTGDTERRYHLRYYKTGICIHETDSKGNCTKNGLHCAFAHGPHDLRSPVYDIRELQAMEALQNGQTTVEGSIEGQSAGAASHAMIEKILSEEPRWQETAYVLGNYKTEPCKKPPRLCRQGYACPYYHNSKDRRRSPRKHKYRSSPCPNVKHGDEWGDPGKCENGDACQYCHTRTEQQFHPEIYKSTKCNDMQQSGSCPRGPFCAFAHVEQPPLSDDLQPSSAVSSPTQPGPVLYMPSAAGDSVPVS
Technique: RNA Bind-n-Seq
Molecule type: RNA
Matrix: in vitro
Concentration: 100 nM
Notes: RNA with constant flanks, vertebrate orthologous sites, ends assumed
Relative to: input RNA pool
Direction: higher = stronger binding
Shared flanks, not repeated: GGGAGUUCUACAGUCCGACGAUC … CAACAGAGGAUUGAGCAUCA
Strand	bound/input enrichment
AAUUUUUUAAAGUUUUUUUAAUUUAAUUUUUCCUUUGGGGGUAAAGUUUGCUCUACCAAAUAGUGAUCGUAAACAAAUUGAUCUGUUUUGGAUGUUGCUAUAGUGACAUGCAGUUAUAUA	0.862 ratio
GUGACUUUGGAAGUCCGCAGGGUGUCAUUGCAGAUACUUUUUAGCUCCAGGCCCGGUGGCUAGGUUGGUUCUCUCCUUUCCAAUCGGAGACCUCUGCCGCAAACAUGCUCCGCCAGAUCC	0.368 ratio
UGUCCUUUCUUACUGUCCCCAGCCGGGGCCGGGGACCGGUGUGUCACUGAGGACCUGCAUUAGAAACAUUUUUUAAAUUGUUGUACAGGAAGAGAUGUGUCUAAAACAGCAUCUCAAAGC	1.23 ratio
CCGAAGCUUUGUAUUUGGCUGCACUUGCAUAAGCUGCUACAAAUAGAAUAAAGAAUUUCAUAGCCUGUAUCUAUCAUUUAGAUGCAUGGUAAAUGGGCUUUGCACACAAUGGGUUUGGAG	1.04 ratio
UUUUAUUGAUCAGGUCUGUAAAUGUGUACUAAAAAAAUCAGAGUUUAUUUAUAAAUAGAAUAGUUUAUUUAAAGAGGUAUUUUCCUCCUUGAUAUCAUGGUAUGCAUAAUUCUGUGUGUU	0.501 ratio
GCACAUGCCGCUGUCACCAAAAUCAGACUGCCAUAUUUCAAAUUUCAUCCAGAAUCGUCGUAGUGUUUCCUAUUCCCUACGCUUCCACUUUUGAUGAUGAAGUAUCCUACGUUCUCCUUC	0.731 ratio
GUACUGCCCGUGCAAAUCCCACAACACUGAAUGCAAAGUAGCAGUUUCCAUAGUCACAGUUAGGUAGCUUUAGGGCAAUAUUGCCAUGGUUUUACUCAUGUGCAGGUUUUGAAAAUGUAC	1.25 ratio
GUGACUUUGGACGUCCGUUCAUCCUCGGUGUAGGUUUUACUUAGUCCCGGGCCUGCCGUGUUUGGUUUUUCCCUUUGGGCAGGAGGCCUCUGCCGCAACCAUGUUACGCCAGAUCAUCGG	0.409 ratio

Block 2
Target: CCNE2, cyclin fold, Cln2 fusion (human)
Technique: yeast growth competition, sequencing
Matrix: yeast
Notes: weak parent motif
Relative to: not given
Direction: higher = stronger binding
Parent: SLBP docking peptide (human); ARYKRKLLINDFG
Change	normalised enrichment score
N10G	2.03
K6A	0.949
R5A L7A	0.549
K6Q	1.3
L8V	1.24
G13V	1.45
Y3N	0.75

Block 3
Target: PABPC1L2, full length, GST fusion (mouse, UniProt A0ABA7IW68)
Technique: RNAcompete
Molecule type: RNA
Matrix: in vitro
Concentration: 20 nM
Notes: 7-mer, probes averaged, single round
Relative to: mean of 7-mers
Direction: higher = stronger binding
Residues (chain): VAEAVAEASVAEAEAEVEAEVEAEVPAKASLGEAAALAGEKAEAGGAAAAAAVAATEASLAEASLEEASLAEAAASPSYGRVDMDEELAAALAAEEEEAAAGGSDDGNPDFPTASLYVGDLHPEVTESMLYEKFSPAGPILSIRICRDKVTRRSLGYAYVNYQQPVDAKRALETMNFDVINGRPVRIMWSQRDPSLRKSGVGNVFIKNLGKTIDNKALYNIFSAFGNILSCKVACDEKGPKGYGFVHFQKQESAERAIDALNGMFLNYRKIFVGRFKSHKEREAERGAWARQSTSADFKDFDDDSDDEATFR
Strand	7-mer Z-score
UACCUAU	-0.278
ACGGCCU	-0.0844
AGCUCGG	-0.17
AGACUGG	-0.122
UGAGUCC	-0.309
UCUUGAC	-0.421
UCCCGCG	-0.353
CCACGUA	-0.0953
UCGUACC	-0.316
CGCUAUG	-0.349

Further values, each from its own experiment
Substance	target	assay	test system	setting	how to read	endpoint	result
PhoQ, residues 284 288 289 292 302 303 ASTSDA	PhoP, residues 12 14 15 18 19 STWGI (Escherichia coli, UniProt P23836)	Sort-seq, refers to: YFP reporter	E. coli	PhoQ-PhoP variant library, added: 10 µM Mg2+	relative to: high Mg2+ state, higher = stronger signaling	fold induction	10.7
